Assay results collected from several papers.
A part holds a random share of what one study measured. “And” joins repeats or separate records; there may be more than shown.
UniProt P31749, sequence (whole entry, looked up): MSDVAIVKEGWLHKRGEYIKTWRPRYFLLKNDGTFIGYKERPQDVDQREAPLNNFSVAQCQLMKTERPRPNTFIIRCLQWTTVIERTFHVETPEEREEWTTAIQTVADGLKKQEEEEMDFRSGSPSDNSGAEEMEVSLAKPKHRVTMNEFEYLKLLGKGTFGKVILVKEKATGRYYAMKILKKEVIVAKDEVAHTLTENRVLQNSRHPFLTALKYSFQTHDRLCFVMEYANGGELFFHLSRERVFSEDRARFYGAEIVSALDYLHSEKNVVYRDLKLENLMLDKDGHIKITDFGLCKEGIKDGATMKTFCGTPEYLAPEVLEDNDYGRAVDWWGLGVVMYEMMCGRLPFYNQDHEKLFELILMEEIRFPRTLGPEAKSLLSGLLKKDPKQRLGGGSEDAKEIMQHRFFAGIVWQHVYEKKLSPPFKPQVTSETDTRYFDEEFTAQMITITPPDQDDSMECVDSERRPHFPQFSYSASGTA
UniProt P42679, sequence (whole entry, looked up): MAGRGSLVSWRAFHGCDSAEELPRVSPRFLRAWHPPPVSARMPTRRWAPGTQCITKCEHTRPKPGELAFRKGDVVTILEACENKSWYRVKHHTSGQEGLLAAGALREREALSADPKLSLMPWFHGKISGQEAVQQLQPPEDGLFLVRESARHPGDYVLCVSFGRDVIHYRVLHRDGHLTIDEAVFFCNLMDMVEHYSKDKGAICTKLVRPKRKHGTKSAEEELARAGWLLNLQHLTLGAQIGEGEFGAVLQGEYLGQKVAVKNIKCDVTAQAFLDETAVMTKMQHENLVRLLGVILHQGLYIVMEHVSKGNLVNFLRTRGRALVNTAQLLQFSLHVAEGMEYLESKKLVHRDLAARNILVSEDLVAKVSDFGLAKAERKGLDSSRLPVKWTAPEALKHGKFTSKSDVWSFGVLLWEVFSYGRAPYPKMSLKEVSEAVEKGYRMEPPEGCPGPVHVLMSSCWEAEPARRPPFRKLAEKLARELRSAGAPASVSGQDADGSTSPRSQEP
UniProt P10721, sequence (whole entry, unmodified, looked up): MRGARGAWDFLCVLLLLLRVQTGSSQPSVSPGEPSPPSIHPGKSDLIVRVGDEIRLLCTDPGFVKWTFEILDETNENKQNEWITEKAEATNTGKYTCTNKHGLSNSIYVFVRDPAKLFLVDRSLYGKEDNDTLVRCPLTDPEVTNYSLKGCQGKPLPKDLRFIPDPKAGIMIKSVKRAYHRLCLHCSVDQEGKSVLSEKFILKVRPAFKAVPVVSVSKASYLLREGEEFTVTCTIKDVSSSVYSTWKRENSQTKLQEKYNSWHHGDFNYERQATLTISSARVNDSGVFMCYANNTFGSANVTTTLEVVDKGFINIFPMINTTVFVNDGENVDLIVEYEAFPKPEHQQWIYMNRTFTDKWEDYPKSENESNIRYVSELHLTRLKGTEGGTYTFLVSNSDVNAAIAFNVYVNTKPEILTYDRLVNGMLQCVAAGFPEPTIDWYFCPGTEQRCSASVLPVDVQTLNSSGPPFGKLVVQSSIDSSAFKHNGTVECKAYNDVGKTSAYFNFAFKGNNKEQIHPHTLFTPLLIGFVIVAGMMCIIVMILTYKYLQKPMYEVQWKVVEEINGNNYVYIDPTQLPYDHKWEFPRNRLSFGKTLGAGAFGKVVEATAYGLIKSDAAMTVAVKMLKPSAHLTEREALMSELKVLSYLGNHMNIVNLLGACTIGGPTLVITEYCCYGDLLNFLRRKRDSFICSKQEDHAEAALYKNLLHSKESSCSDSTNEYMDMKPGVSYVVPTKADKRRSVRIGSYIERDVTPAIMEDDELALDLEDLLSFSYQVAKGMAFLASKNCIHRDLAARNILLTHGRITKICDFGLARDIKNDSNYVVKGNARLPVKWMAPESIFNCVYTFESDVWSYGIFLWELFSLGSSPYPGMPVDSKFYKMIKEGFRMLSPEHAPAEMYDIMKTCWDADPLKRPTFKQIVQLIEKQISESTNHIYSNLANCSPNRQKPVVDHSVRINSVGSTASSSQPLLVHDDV
UniProt Q9H2K8, sequence (whole entry, looked up): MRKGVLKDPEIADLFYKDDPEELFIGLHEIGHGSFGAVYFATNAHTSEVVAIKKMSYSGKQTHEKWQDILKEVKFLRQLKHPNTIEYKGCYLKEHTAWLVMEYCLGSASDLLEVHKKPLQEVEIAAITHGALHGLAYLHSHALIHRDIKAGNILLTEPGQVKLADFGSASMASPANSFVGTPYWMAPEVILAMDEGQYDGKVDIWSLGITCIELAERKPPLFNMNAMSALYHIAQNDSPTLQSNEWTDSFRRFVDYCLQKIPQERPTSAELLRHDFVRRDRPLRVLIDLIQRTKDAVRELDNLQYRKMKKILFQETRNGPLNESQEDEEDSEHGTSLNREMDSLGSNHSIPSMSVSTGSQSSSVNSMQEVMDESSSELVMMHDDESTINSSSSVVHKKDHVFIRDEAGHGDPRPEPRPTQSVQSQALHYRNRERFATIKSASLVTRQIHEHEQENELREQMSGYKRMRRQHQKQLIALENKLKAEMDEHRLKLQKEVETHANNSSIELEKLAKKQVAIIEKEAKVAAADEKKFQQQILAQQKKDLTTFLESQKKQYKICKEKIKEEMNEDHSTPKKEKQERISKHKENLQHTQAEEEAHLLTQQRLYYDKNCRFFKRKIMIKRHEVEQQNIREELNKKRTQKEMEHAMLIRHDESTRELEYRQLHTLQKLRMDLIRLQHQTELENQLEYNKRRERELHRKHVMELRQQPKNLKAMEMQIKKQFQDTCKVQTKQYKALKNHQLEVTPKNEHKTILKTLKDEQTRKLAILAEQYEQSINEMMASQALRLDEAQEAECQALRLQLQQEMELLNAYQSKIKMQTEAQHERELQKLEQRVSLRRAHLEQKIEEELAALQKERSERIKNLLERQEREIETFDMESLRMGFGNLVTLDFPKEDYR
UniProt Q86Z02, sequence (whole entry, looked up): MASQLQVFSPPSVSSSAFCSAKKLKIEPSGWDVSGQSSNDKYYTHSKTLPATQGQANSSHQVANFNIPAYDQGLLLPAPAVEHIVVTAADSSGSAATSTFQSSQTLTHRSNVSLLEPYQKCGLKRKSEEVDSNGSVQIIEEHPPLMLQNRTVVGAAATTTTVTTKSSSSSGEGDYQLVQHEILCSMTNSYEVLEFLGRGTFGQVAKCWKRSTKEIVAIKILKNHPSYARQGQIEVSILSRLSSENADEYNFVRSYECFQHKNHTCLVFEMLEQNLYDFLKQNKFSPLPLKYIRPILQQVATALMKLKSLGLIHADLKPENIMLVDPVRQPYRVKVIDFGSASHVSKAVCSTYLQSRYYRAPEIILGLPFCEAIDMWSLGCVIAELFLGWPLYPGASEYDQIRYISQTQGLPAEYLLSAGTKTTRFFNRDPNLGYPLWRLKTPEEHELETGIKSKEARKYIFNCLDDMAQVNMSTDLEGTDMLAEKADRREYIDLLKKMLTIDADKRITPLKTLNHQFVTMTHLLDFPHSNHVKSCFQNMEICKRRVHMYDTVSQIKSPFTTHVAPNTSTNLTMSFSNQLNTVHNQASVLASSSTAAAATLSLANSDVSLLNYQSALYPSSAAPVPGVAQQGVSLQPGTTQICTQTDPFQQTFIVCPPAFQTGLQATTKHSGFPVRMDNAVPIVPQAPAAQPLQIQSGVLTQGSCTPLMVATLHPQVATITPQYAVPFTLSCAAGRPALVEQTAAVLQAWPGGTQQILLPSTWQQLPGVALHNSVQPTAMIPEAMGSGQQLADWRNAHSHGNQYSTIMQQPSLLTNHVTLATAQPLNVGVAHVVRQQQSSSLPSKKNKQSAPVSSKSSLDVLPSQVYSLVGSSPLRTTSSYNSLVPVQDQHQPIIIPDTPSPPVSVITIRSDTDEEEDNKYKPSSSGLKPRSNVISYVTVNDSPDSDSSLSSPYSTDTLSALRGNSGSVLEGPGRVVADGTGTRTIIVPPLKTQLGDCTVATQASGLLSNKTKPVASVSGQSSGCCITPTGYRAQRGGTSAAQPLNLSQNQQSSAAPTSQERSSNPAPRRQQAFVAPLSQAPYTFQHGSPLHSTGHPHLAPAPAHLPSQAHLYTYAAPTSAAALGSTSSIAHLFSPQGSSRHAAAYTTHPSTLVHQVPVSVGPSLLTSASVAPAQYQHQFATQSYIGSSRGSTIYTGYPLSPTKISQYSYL
UniProt Q00526, sequence (whole entry, looked up): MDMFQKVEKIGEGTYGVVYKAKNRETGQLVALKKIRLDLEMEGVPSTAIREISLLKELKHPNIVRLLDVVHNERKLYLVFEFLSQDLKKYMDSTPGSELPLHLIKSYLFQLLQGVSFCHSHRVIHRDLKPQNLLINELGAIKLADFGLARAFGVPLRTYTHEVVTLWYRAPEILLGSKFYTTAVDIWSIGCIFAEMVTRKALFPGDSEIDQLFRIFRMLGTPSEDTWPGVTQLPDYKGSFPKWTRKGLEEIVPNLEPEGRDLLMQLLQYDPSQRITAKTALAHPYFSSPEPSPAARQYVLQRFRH

Block 1
SMILES: COc1cc2ncnc(Nc3ccc(OCc4ccccc4)cc3)c2cc1OC
Effect on: enzyme activity
Action: inhibitor
Tested at: 0.5 µM
Relative to: control
The remaining activity was 104% (HIPK1 (Homo sapiens, UniProt Q86Z02)).
The remaining activity was 93.4% (STK25 (Homo sapiens, UniProt O00506)).
It gave 101% for remaining activity (PKN1 (Homo sapiens, UniProt Q16512)).
Cyclin-dependent kinase 3, with cyclin E (CDK3, Homo sapiens, UniProt Q00526) — remaining activity: 96.3%.
The remaining activity was 103% (ALK (Homo sapiens, UniProt Q9UM73)).
For FYN (Homo sapiens, UniProt P06241): remaining activity read 86.3%.
For PRKX (Homo sapiens, UniProt P51817): remaining activity read 105%.
The remaining activity was 91.7% (TAOK3 (Homo sapiens, UniProt Q9H2K8)).
ITK (Homo sapiens, UniProt Q08881) — remaining activity: 96.2%.
For CDC42BPA (Homo sapiens, UniProt Q5VT25): remaining activity read 101%.
The remaining activity was 72.2% (FGR (Homo sapiens, UniProt P09769)).
The remaining activity was 98.9% (FLT4 (Homo sapiens, UniProt P35916)).
FER (Homo sapiens, UniProt P16591) — remaining activity: 90.8%.
It gave 106% for remaining activity (MARK3 (Homo sapiens, UniProt P27448)).
The remaining activity was 102% (SRC (Homo sapiens, UniProt P12931)).
The remaining activity was 90.4% (NEK11 (Homo sapiens, UniProt Q8NG66)).
The remaining activity was 103% (AKT1 (Homo sapiens, UniProt P31749)).
It gave 95.4% for remaining activity (LIM domain kinase 1 (LIMK1, Homo sapiens, UniProt P53667)).
It gave 98.6% for remaining activity (PASK (Homo sapiens, UniProt Q96RG2)).
For NLK (Homo sapiens, UniProt Q9UBE8): remaining activity read 96.5%.
Insulin receptor (INSR, Homo sapiens, UniProt P06213) — remaining activity: 100%.
For MATK (Homo sapiens, UniProt P42679): remaining activity read 97.5%.

Block 2
Cell line: normal-adjacent epithelial organoid
Effect on: cell viability
Method: CellTiter-Glo
Species: human
Sample: patient-derived organoid
Tested at: 1 µM
Relative to: DMSO
For `CN(C)[C@@H]1CCN(c2cc(-c3ccccc3)nc3ccnn23)C1`, the viability was 118%.
The viability of `CN1CCN(C(=O)C(C)(C)c2ccc(C(=O)Nc3cn4cc(-c5cc(C(C)(C)C)cc(C(C)(C)C)c5)ccc4n3)cc2)CC1` is reported as 86.8%.
`N#CC1(c2ccccn2)CCN(Cc2cc(C(=O)N3CCCC3)c(=O)n3ccccc23)CC1` gave a viability of 136%.
With `CN(C)C(=O)Cn1cc(-c2ccc(-c3cncc4ccccc34)cc2)cn1` the viability was 83.7%.
The viability of `O=C(NNS(=O)(=O)c1ccccc1F)c1cc(F)cc(-c2ccccn2)c1` is reported as 110%.
For `CC(C)(O)c1cncc(-c2nc3ccc(F)cc3n2C2CC2)c1`, the viability was 126%.
`Nc1nc(NCc2ccccc2)nc(-c2ccccc2CO)n1` gave a viability of 117%.
The viability of `O=C1CCc2cc(Nc3cc(OC4CCOCC4)c([N+](=O)[O-])cc3Cl)ccc2N1` is reported as 96.8%.
`COc1cc(-c2cn(C3CCc4c(F)cccc4N(CC(F)(F)F)C3=O)nn2)ccc1-n1cnc(C)c1` (centres unmarked) has a viability of 108% and 112%.
For `Cn1cncc1[C@@](O)(COc1ccc(C#N)cc1-c1ccc(OC(F)(F)F)cc1)c1ccc(C#N)cc1`, the viability was 77.3% and 81%.
`Cc1cc(-n2nc(Cc3cc(F)cc(C(F)(F)F)c3)nc2C)ccc1C(N)=O` has a viability of 84%.
`Cc1cn(-c2cc(NC(=O)c3ccc4c(c3)CN(c3cncnc3)C[C@@H]4C)cc(C(F)(F)F)c2)cn1` gave a viability of 54.9% and 71.6%.
For `Nc1nc(NCc2ccccc2)nc(-c2cccc(CO)c2)n1`, the viability was 102%.
The viability of `C[C@@H](NC(=O)Nc1cc2[nH]ncc2c(CO)n1)c1ccccc1` is reported as 66.1% and 62%.
`CNc1nc(-c2ccc3c(N)n[nH]c3c2)cc(N2C[C@@H](C(=O)NC3CCCCC3)CC[C@H]2C)n1` gave a viability of 86%.

Block 3
SMILES: C=CC(=O)N1CCC[C@@H](n2nc(-c3ccc(Oc4ccccc4)cc3)c3c(N)ncnc32)C1
Action: inhibitor
Tested at: 1 µM
The inhibition was 5% (DCLK1 (Homo sapiens, UniProt O15075); enzyme activity).
EPHB6 (Homo sapiens, UniProt O15197); enzyme activity — inhibition: 87%.
For LIM domain kinase 2 (LIMK2, Homo sapiens, UniProt P53671): inhibition read 7%.
KIT (Homo sapiens, UniProt P10721, L576P) — inhibition: 67%.
The inhibition was 15% (CDC42BPG (Homo sapiens, UniProt Q6DT37)).
INSRR (Homo sapiens, UniProt P14616); enzyme activity — inhibition: 16%.
The inhibition was 94% (EGFR (Homo sapiens, UniProt P00533, L858R/T790M)).
It gave 10% for inhibition (HIPK3 (Homo sapiens, UniProt Q9H422); enzyme activity).
ABL2 (Homo sapiens, UniProt P42684); enzyme activity — inhibition: 59%.
For EGFR (Homo sapiens, UniProt P00533, A750P/del747-749): inhibition read 98%.
MAP4K3 (Homo sapiens, UniProt Q8IVH8); enzyme activity — inhibition: 5%.
It gave 1% for inhibition (STK39 (Homo sapiens, UniProt Q9UEW8); enzyme activity).
MELK (Homo sapiens, UniProt Q14680) — inhibition: 33%.
For MYLK3 (Homo sapiens, UniProt Q32MK0); enzyme activity: inhibition read 12%.
NEK4 (Homo sapiens, UniProt P51957); enzyme activity — inhibition: 3%.
SBK3 (Homo sapiens, UniProt P0C264); enzyme activity — inhibition: 0%.

Block 4
Target: Calcium/calmodulin-dependent protein kinase type II subunit alpha (CAMK2A, Homo sapiens, UniProt Q9UQM7)
UniProt Q9UQM7, sequence (whole entry, looked up): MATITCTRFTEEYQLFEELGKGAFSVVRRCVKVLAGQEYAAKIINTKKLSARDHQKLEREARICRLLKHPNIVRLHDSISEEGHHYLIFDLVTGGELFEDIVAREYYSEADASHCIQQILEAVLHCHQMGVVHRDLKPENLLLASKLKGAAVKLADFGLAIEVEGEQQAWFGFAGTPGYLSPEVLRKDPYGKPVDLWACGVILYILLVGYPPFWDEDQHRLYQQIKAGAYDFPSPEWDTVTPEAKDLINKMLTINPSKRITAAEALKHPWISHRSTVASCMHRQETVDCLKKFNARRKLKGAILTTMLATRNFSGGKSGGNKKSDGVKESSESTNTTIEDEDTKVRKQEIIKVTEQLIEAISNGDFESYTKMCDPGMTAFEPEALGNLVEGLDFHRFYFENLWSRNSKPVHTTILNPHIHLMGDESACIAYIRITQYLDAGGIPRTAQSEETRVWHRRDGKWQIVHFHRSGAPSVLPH
Effect on: enzyme activity
Action: inhibitor
Tested at: 10 µM
`CC(C)(O)[C@H](O)COc1c2ccoc2cc2oc(=O)ccc12` gave an inhibition of 24%.
With `CC1(C)OC(c2ccc(S(N)(=O)=O)cc2)=C(c2cccc(F)c2)C1=O` the inhibition was 3%.
`C[C@]12C[C@@H](O)[C@@H]3C[C@@]1(O[C@@H]1O[C@H](CO)[C@@H](O)[C@H](O)[C@H]1O)[C@]3(COC(=O)c1ccccc1)C(=O)O2` has an inhibition of -2%.
`CC(C)CCC[C@@H](C)[C@H]1CC[C@H]2[C@@H]3CC[C@H]4C[C@@H](O)CC[C@]4(C)[C@H]3CC[C@]12C` gave an inhibition of 6%.
For `CCCCCCCCC1=C(CCCCCCCC(=O)O)C1`, the inhibition was 19%.
For `COc1ccc(NC(=O)c2ccc(C(=N)N(C)C)cc2)c(C(=O)Nc2ccc(Cl)cn2)c1`, the inhibition was 2%.
With `COc1ccc([C@@H]2CC(=O)c3c(O)cc(O[C@@H]4O[C@H](CO)[C@@H](O)[C@H](O)[C@H]4O[C@@H]4O[C@@H](C)[C@H](O)[C@@H](O)[C@H]4O)cc3O2)cc1` the inhibition was -26%.
With `Nc1ccn([C@H]2C[C@H](O)[C@@H](COP(=O)(O)OP(=O)(O)O)O2)c(=O)n1` the inhibition was 3%.
For `COc1cc(OC)c(C(=O)O)cc1OC`, the inhibition was 9%.

For quick reference, copied from above (block 2):
The viability of `CN1CCN(C(=O)C(C)(C)c2ccc(C(=O)Nc3cn4cc(-c5cc(C(C)(C)C)cc(C(C)(C)C)c5)ccc4n3)cc2)CC1` is reported as 86.8%.
`N#CC1(c2ccccn2)CCN(Cc2cc(C(=O)N3CCCC3)c(=O)n3ccccc23)CC1` gave a viability of 136%.
With `CN(C)C(=O)Cn1cc(-c2ccc(-c3cncc4ccccc34)cc2)cn1` the viability was 83.7%.
The viability of `O=C(NNS(=O)(=O)c1ccccc1F)c1cc(F)cc(-c2ccccn2)c1` is reported as 110%.
For `CC(C)(O)c1cncc(-c2nc3ccc(F)cc3n2C2CC2)c1`, the viability was 126%.
`Nc1nc(NCc2ccccc2)nc(-c2ccccc2CO)n1` gave a viability of 117%.
The viability of `O=C1CCc2cc(Nc3cc(OC4CCOCC4)c([N+](=O)[O-])cc3Cl)ccc2N1` is reported as 96.8%.
`COc1cc(-c2cn(C3CCc4c(F)cccc4N(CC(F)(F)F)C3=O)nn2)ccc1-n1cnc(C)c1` (centres unmarked) has a viability of 108% and 112%.
For `Cn1cncc1[C@@](O)(COc1ccc(C#N)cc1-c1ccc(OC(F)(F)F)cc1)c1ccc(C#N)cc1`, the viability was 77.3% and 81%.
